# Assay results gathered from unrelated publications.
# A part holds a random share of what one study measured. Substitutions count along the parent as printed.

# Block 1 — method: RNA Bind-n-Seq; form: RNA; sample: in vitro; concentration: not given; reference: input RNA pool; direction: higher = stronger binding
# Target: RING finger protein unkempt homolog, zinc fingers 1-6, GST-SBP tag (UNK, Homo sapiens, UniProt Q9C0B0, residues 30-357)
# UniProt Q9C0B0, sequence (30-357, looked up): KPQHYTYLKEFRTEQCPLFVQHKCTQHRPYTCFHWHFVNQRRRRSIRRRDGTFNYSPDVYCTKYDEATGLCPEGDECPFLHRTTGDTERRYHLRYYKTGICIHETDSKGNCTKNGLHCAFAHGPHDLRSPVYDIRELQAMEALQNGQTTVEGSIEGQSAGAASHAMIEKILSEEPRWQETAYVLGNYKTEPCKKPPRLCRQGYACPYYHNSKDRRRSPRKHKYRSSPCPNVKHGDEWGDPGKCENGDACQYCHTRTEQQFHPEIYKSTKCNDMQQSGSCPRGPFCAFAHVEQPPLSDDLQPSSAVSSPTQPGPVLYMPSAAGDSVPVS
# Notes: RNA with constant flanks, human and mouse sites, ends assumed
Oligonucleotide,bound/input enrichment [ratio]
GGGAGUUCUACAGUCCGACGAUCCGGGGAGCUUUCUGUGAAGUGAGACCAGAUGAUAAAAGAAUUCUGGAAUUUUACAGCAAGUUAGGAUGUUUUGAAAUUGCAAAAAUGGAAGGAUUUCCAAAGGAUGUGGUUAUACUUGGUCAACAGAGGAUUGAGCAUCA,0.769
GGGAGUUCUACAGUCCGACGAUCAUAUCUUCCGAAGAGGGAGAGACGGAAGCUAAUAAUCACAAGAAGUUGUCAGAAUUUGGAAUUAGAAAUGGCAGCCGGCUUCAAGCAGAUGACUUCCUCCAGGACUAUACUUUAUUGAUCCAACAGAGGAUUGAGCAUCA,0.363
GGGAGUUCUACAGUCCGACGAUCGCUGCACCACCUGGCACGGGCCAGGCGUCCGGGGAGAGAAGAUGUUUUCCCGGCUAAGAGCUGUUACCACUCCUUGUACCUUGACCUGCCGCCGAGUGCACCUGAAAGAGAAGGGCAAGCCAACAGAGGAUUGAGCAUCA,0.126
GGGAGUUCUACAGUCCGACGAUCACAGCGUAUGACAAGCGUGCGGCGUCCAAUGCUUUCAUGAUAUGUGGGGUUCUCUAUGUGGUCAGGUCAGUGUACCAAGACAAUGAAAGCGAAGCAGGCAAGAACACCAUUGACUACAUCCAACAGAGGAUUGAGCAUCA,0.119
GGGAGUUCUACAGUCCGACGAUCAUUGACAAGUGCAGACAGCAGCUUCAUGAUAUUACUGUACCGUUAGAAGUUUUUGAAUAUAUAGAUCAAGGUCGAAAUCCCCAGCUCUACACCAAAGAGUGCCUGGAGAGGGCUCUAGCUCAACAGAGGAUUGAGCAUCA,4.41
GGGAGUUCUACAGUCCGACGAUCAUGUUCAUCAGUAGAUGCUAUUAUUCAUAAGAACUGUGAUUCCAGCAAACUAGGGUAAUUGGUGCCUUUUUACAGUUUUGAAUAAAAGCAUUUACAAUUUCUAAAUUAUCAGUUUUCACACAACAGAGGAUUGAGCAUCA,0.449
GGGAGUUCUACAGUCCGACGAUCGACAGAAUUCAGAAGCAGGAAAAAAAGCCUUUUAAAAAUACCGAGAACAUUAAAAAUUCGCAUUUGAAGAAAUCAGCAUUUCUAACUGAAGUGAGCCAAAAGGAAAAUUAUGCUGGGGCACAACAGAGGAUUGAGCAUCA,0.45
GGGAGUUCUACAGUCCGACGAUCGUGCAGCAGGACACGAUCCUGGCCGAAGGCCUUCACUUCAGGAUCCCCUGGUUCCAGUACCCCAUCAUCUAUGACAUUCGGGCCAGACCUCGAAAAAUCUCCUCCCCCACAGGCUCCAAACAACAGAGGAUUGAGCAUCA,0.462
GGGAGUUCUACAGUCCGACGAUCGUUCUUGAAGUGAAUAUCCCAAAGAAGCCAGAUGGAAAGAUGCGUGGUUUUGCUUUUGUUCAGUUCAAAAACCUCCUUGAAGCAGGAAAAGCUCUCAAAGGCGCGAAUAUGAAGGAGAUACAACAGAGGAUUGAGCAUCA,0.606
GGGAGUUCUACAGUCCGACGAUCCGGCAUGCCCAGGGGGGUACAUGGUAUGGAGUAGACAUCAACAACGAGGACAUUGCUGACAACUUUGAAGCUUUCGUGUGGGAGCCAGCUAUGGUGCGGAUCAAUGCGCUGACAGCAGCCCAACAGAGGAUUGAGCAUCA,0.291
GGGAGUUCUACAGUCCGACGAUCCUUGAGUCUCUGAAACAACAUCAAGAAACAAUUAAUACACUAAAAUCGAAAAUUUCUGAGGAAGUUUCCAGGAAUUUGCAUAUGGAGGAAAAUACAGGAGAAACUAAAGAUGAAUUUCAGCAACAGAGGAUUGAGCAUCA,0.294

# Block 2 — target: CCNB3, cyclin fold, Cln2 fusion (human); method: yeast growth competition, sequencing; sample: yeast; notes: weak parent motif; reference: not given; direction: higher = stronger binding
# Parent: REV3L docking peptide (human); PPVIIKYIIINRF; partner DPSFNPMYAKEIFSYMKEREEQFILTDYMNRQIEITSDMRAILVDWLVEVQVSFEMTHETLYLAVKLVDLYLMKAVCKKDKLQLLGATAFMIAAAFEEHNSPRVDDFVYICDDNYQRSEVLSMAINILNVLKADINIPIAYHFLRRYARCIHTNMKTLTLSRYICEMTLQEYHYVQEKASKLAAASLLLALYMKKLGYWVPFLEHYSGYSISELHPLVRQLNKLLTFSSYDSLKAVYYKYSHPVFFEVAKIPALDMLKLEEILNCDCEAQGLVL
Variant,normalised enrichment score
F13A,0.431
I4A,0.056
I8A,0.248
I5A,0.0946
I10A,0.592
P2A,0.186

# Block 3 — method: RNA Bind-n-Seq; form: RNA; sample: in vitro; concentration: 1 µM; notes: whole 134-nt RNA, ends assumed; with: 150 mM KCl; reference: input library; direction: higher = stronger binding
# Target: Ras GTPase-activating protein-binding protein 1, C-terminal RGG region (G3BP1, Homo sapiens, UniProt Q13283)
# UniProt Q13283, sequence (whole entry, looked up): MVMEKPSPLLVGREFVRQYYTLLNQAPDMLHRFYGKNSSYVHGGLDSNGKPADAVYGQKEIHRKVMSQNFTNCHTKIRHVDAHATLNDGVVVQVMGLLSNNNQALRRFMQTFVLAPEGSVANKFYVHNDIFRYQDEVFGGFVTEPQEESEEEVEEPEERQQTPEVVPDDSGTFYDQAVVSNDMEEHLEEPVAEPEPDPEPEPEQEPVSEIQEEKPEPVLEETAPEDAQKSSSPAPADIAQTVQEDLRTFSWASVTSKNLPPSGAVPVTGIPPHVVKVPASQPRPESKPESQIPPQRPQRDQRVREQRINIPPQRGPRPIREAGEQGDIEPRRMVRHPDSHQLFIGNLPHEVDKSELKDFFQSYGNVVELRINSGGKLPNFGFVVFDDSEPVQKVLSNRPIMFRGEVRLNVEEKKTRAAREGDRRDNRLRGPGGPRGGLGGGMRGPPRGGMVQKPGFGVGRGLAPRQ
Oligonucleotide,log2 enrichment
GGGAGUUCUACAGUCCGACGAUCUGGGUUCUUAUUUCUAACUUGCAUAUGUUUUGUUUUUCAGAAGGAGUUGAGCCUUCCAAGAAGAGGCAGCUUGUAAGUAGAUGAUUAUUAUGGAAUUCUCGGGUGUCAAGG,-1.43
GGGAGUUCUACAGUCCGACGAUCGCAGGAAGUAAAAACAAAUGGAAAUGCUUCGGAUAGUGGCAGGGGUGGGGGUUGCUAAGGAAAGGGUGGAAAGGGAGUGGGUAAAGAGUUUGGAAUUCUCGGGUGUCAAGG,1.45
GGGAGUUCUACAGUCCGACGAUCUCCUGUGCUACACAUCGUAUGUACCGAAUCGGGGUUUUUGGGGAAAAAAAGGGGAGGGGAAAGUAUUAUGUUACGCCGUUCGGAUCUGCAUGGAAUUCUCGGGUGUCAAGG,1.67
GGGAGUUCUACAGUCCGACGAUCUCCUGUGCUACACAUCGUAUGUACCGAAUCGGUUUUUGGGGUUUUUGGGGUUUUUGGGGAAAGUAUUAUGUUACGCCGUUCGGAUCUGCAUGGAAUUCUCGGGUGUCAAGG,-0.0788
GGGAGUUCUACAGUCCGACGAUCAAGUCCUGUGCUACACAUCGUAUGUACCGAAUCGGGUUUUUGGGUUUGGGAAAGGGAAAGUAUUAUGUUACGCCGUUCGGAUCUGCACUUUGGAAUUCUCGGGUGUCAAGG,0.901
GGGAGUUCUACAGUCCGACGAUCUCCUGUGCUACACAUCGUAUGUACCGAAUCGGGAAAAAGGGAAAAAAAGGGAAAAAGGGAAAGUAUUAUGUUACGCCGUUCGGAUCUGCAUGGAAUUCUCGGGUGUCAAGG,-0.703
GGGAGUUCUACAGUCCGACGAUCCCUGUGCUACACAUCGUAUGUACCGAAUCGGGGUUUUUGGGGAAAAAGGGGUUUUUGGGGAAAGUAUUAUGUUACGCCGUUCGGAUCUGCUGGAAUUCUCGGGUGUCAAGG,1.52
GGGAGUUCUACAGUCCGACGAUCUGUUGAAAUGGGACAGUUGGCAGCGGCUCUGAUGAGCCCGAGAAGAGGCCUGCCCUUGGGUGCGGAGUCUCCCUCCGCACGAUGCUCCCAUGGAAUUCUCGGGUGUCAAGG,-1.55
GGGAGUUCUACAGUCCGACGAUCAAGUCCUGUGCUACACAUCGUAUGUACCGAAUCGGGUUUUUUUGGGUUUGGGUGGGAAAGUAUUAUGUUACGCCGUUCGGAUCUGCACUUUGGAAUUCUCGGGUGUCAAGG,0.844
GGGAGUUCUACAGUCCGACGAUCGUCCUGUGCUACACAUCGUAUGUACCGAAUCAAACCCCCCCAAAUUUAAAUUUUUAAAAAAGUAUUAUGUUACGCCGUUCGGAUCUGCACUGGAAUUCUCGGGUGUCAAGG,-0.235

# Block 4 — method: DHFR PCA, deep sequencing; sample: yeast; with: (+)-ABA 1.4 µM; reference: wild-type fitted maximum; direction: higher = stronger binding
# Target: ABI1, truncated, D143A, DHFR fusion (Arabidopsis thaliana)
# Notes: methotrexate growth selection, single substitutions
# Parent: PYL1, truncated, DHFR fusion (Arabidopsis thaliana); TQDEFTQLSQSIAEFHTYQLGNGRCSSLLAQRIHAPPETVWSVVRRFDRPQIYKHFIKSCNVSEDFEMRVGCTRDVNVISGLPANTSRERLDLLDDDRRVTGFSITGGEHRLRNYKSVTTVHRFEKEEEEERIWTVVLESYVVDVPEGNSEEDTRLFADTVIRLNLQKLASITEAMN
Variant,relative binding score [%]
T101K,3.46
K58S,39.8
E139N,10.7
F103C,1.77
M176F,6.81
D144P,-19.3
D92I,5.03
Q19E,77.7
G102W,12.3
T101G,-8.27
A13T,41.4
H34L,47.8
S117N,-3.99
R111F,3.57
R74D,-2.44
G21L,21.6
R163H,13.2

# Further values, each from its own experiment — method: cross-linking MS; sample: cell fractions
Substance,partner,with,cross-linked residues
"PCNT (Homo sapiens, UniProt O95613)","ADCY4 (Homo sapiens, UniProt Q8NFM4)",DMTMM,E874 to K821
"RFC4 (Homo sapiens, UniProt P35249)","RFC3 (Homo sapiens, UniProt P40938)",DSSO,K255 to K20
"NEMF (Homo sapiens, UniProt O60524)","KPNB1 (Homo sapiens, UniProt Q14974)",DSSO,K347 to K23

# Repeated from above (block 3):
Oligonucleotide,log2 enrichment
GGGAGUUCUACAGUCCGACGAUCUGGGUUCUUAUUUCUAACUUGCAUAUGUUUUGUUUUUCAGAAGGAGUUGAGCCUUCCAAGAAGAGGCAGCUUGUAAGUAGAUGAUUAUUAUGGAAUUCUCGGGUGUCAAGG,-1.43
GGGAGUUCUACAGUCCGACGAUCAAGUCCUGUGCUACACAUCGUAUGUACCGAAUCGGGUUUUUUUGGGUUUGGGUGGGAAAGUAUUAUGUUACGCCGUUCGGAUCUGCACUUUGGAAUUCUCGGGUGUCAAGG,0.844
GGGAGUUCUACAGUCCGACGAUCUGUUGAAAUGGGACAGUUGGCAGCGGCUCUGAUGAGCCCGAGAAGAGGCCUGCCCUUGGGUGCGGAGUCUCCCUCCGCACGAUGCUCCCAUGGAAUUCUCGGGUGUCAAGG,-1.55
